Measured values pooled from the literature.
Numbered parts are unrelated; each lists some results of a single study. Positions count from the first letter of the parent shown.

Block 1 — method: RNA Bind-n-Seq; molecule type: RNA; matrix: in vitro; concentration: 365 nM; reference: no-protein control; direction: higher = stronger binding
Target: RNA binding protein fox-1 homolog 2, RRM domain, GST-SBP tag (RBFOX2, Homo sapiens, UniProt O43251-10, residues 100-194)
Notes: natural RNA segment, single round, ends assumed
Constant ends, left off below: GGGAGUUCUACAGUCCGACGAUC … UGGAAUUCUCGGGUGCCAA
Construct (chain): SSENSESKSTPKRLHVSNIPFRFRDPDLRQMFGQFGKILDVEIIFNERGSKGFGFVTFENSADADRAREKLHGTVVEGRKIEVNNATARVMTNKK
Strand | RBNS enrichment (R)
CUGCAAAGCCCUGUCAGACAGACUGGGCCCUUCCAAGGUCAAGCCAUGUGUCUGAUGACAUUCCUGGUGAAGCAAAGGAGAGGAGGAUGGGUCAGCCCUCACUGGGUGUC | 0.216
UAGUAGAUGCUGUCCUAUAUACCUAUUAAAAAUGCCAAACACUGAUAACAUUGAACAUGUUCAUAUUGAUAGAGAUAAUAUUGUAUAGGUCUAGUGUGUAUGGAUCUGGG | 0.329
CACCCACCACUUACUUGUGCCAGAAACUCUGGAGGCACCCACACCUCCCACCUGUUCAGGUUGUGGCAGCCUCUGUGCAGGUUGGAUGUGGAAAUAAAAGCAACCCUGUG | 0.838
AAAUUCCCGAAAGGACCUCUCGAAAGCAUGGAAUUUCCUGACUGUGCCAAGGGCCUGGAUAAAGGGGAACUACGGCAUCUUGGAGCUCACAAAUGUGAAUCAAGCAGUCC | 1.74
GACUUAAUCAACUAUAAAAGCUUACAAUUAGUCUUCACAAUUAUGGGAUUGUUAUACUAACUGUGUGAUUGGAACUCCAAAGACCUUUUCUUUAGCUUAAUUUUGUGUGU | 0.873
AGAAUUAAAGUUGCCAAAUUAUUCUGAUUGGUCUUUAAUCUCCUUAAGUUUUUGAUUUAUCUUACUUGGUAAAUGAAAUGCAUUAGCUGUCUGCCUUUUCCUUCCCAUCC | 1.25
AGGCAGGACCUCUGAGCGAUGUAGGUUUUUUUAUUUUUAAGUUGUAUUUCUUUUCUCCCUGCUCUUGAGUGUCCUUGUCCUGCCCUCCCAUUCCAGCCGUGAUGAGCAUU | 0.987
ACAAUCUGAAUAGUGUGCUGUCAGGAGUGGUUUGUCGGAGCAGCGCUUGCCACAAUGAUUCCGUGUUUUUACAGGGCAUUCAACUGCUGCAAAGGUUAACAUAUAAUGCC | 1.02
UCACUGGGUAGUAUCACACAGGUGUGUCUGGGUUGAGAUGUUACUCCUCUGAAUGAAUAGGAGGAUGGUACCAGCCAUGACAGAAACACCAGCAUUAGGUAUUACUACCU | 2.48
CGGGAGGGGAGUUAACUGGCAGGCAUGGCAAGGUUGCAUAUGUAAUAAAGUACAAGCUGUUAAAAAACCUGGAGAAAGCUUUUUGACUUUGAGCAGGUGGAGAACCCCAC | 0.688
UUUGUCUCCAGUCUGGUGCCAGGCAGUAGAGUGGAAAAGGAGGCUAUUUUUUUAUUCUAUGUGCACACAUACAGUAUACAUAUAUAUUUAUAUCACAUUUUACUGAACCA | 0.501
UCCAGGAGACUUUGCCUUGAGGGUGCCACAGGUGGAGAGAUAAAGAUAGCUUUUGAAGCUUGAACACAUGCCAGUGAGAUGAAAGUUGGCCUUAGCAACUGCCCAGGUCC | 0.585

Block 2 — method: protein-binding microarray; molecule type: double-stranded DNA, one strand shown; matrix: in vitro; concentration: 2540 nM top; notes: 60-bp whole probe; with: salmon DNA 0.4 mg/ml; reference: random background probes; direction: higher = stronger binding; constant ends, left off below: GCCTAGCAC … GTCTTGATTCGCTTGACGCTGCTG
Target: Interferon regulatory factor 3, full length, phosphomimetic (IRF3, Homo sapiens, UniProt Q14653, residues 1-427, S386D/S396D/S398D/S402D/T404D/S405D)
Target sequence (chain): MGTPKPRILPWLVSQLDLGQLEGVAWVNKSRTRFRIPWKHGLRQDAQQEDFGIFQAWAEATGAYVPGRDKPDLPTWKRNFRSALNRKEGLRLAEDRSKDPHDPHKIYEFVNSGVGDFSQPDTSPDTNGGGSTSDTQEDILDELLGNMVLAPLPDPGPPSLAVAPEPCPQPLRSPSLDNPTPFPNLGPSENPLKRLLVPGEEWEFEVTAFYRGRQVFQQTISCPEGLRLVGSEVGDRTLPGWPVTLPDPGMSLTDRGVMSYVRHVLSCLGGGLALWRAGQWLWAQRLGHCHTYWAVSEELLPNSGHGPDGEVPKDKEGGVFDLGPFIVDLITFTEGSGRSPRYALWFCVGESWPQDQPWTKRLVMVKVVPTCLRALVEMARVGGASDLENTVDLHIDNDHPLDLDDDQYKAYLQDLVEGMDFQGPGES
Strand | fitted relative affinity
TTAGGTCTCCTTATCCTTTGGTGCTAG | 2.65 z-score
TTAGGTAACCTTTTCCTTTAGTGCTAG | 3.56 z-score
TCAAGTCTTGTTTTACAACTGTGCTAG | 0.409 z-score
TTAGGTTTCCTTATCCTCTAGTGCTAG | 8.46 z-score
GACGGTATCCTATTGCTGACGTGCTAG | 3.84 z-score
GACGGTTTCGGTTTCGAGACGTGCTAG | 9.98 z-score
GACGATTTCGGGTTTAGAGACGTGCTA | 2.39 z-score
TTTTTTTCATATATATATGAGTGCTAG | 2.1 z-score
GACGGTATCGGCTTCGGGACGTGCTAG | 1.27 z-score
TTAGGTTTCGGATATCGGTTAGTGCTA | 6.03 z-score
GACTGTTTCGGTTTCGGGACGTGCTAG | 10.2 z-score
GACGGAGTGGGGTTTCGGGACGTGCTA | 0.658 z-score
CACGATTTCAGTATCGAGACGTGCTAG | 1.92 z-score
GCCGATATCAGACTGGAGACGTGCTAG | 0.791 z-score
TTAGAACCGGGGTTTCGATTAGTGCTA | 1.41 z-score
TCATGTTTCCTCTTTCAACTGTGCTAG | 3.84 z-score
GACGATTTAAGTATCGAGACGTGCTAG | 0.955 z-score
TTAGGTATCGACTTTGGGTTAGTGCTA | 0.53 z-score

Block 3 — target: CCNE2, cyclin fold, Cln2 fusion (human); method: yeast growth competition, sequencing; matrix: yeast; notes: strong parent motif; reference: not given; direction: higher = stronger binding
Parent: DOT1L docking peptide (human); SEAKRRIVFTITT
Variant | normalised enrichment score
SEAKRRIVFAITT [T10A] | 0.887
SEAKRRIVFTATT [I11A] | 1.37
SEAKRRAVFTITT [I7A] | 0.26
SEAKRAIVFTITT [R6A] | 0.162
SEAKRRIVATITT [F9A] | 0.712
SEAKRRIVFTITA [T13A] | 1.18

Block 4 — method: protein binding microarray; molecule type: double-stranded DNA, one strand shown; matrix: in vitro; concentration: not given; reference: not given; direction: higher = stronger binding
Target: Histone acetyltransferase KAT6A, winged helix 1, GST fusion (KAT6A, Homo sapiens, UniProt Q92794, residues 1-85)
Notes: 8-mer, flanks averaged, mean of 2 arrays, mostly near background
Residues (chain): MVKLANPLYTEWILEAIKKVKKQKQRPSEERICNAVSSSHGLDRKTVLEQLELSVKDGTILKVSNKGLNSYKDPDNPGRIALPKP
Strand | E-score
AAGTTGCA | -0.186
AAGACTTA | -0.2
CCCAGACG | 0.0275
GAATGCGC | 0.339
GTCCGTAA | 0.236
ACCCTGGA | -0.168
GCATCGGA | 0.148
GATACAGC | -0.0538
ATGCGGCC | 0.249
ACGGCGCG | 0.441
GTGGCTTA | -0.128
CATAATAA | -0.124
TCCGACGA | 0.103
GGTTGTGA | -0.1
GCTCGAAC | -0.113
CCCTCGGC | 0.237
ATTGTCAG | -0.146
AGAATACG | 0.149
ACTCAAGC | -0.133
ATTGTATA | -0.0776
ACACTAAC | 0.0258
AGAGCACC | -0.0694
GTATGCCA | -0.239
AGCTTAGC | -0.00856
AGCACAGA | -0.2

Block 5 — method: RNA Bind-n-Seq; molecule type: RNA; matrix: in vitro; concentration: not given; reference: input RNA pool; direction: higher = stronger binding
Target: RING finger protein unkempt homolog, zinc fingers 1-6, GST-SBP tag (UNK, Homo sapiens, UniProt Q9C0B0, residues 30-357)
Notes: RNA with constant flanks, human-mouse chimeric sites, ends assumed
Constant ends, left off below: GGGAGUUCUACAGUCCGACGAUC … CAACAGAGGAUUGAGCAUCA
Target sequence (chain): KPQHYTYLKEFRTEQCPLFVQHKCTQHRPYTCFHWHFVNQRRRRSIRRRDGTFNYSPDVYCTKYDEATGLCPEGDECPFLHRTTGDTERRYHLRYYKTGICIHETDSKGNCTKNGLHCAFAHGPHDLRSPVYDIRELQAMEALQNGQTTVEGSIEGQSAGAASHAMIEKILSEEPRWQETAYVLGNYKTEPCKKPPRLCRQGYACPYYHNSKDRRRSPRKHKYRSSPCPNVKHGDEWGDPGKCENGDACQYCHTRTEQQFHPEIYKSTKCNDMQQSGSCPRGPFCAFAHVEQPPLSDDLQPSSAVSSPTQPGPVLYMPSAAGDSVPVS
Strand | bound/input enrichment
AGAGAUAAAGCAUCUAGGAACAUGCGAGGCUCCCGGAUGAAUGGGUUGCCUAGCCCCACUCAUAGUGCCCACUGUAGCUUCUACCGAACCAGAACCUUGCAGGCACUGAGUAAUGAGAAG | 0.0856 ratio
UCUUAACGUCCAUUUAAAACUUAUUUUUAUAGCUAGAUAAAUAUUGUUAGUCUUAGACAAUAGCUCACAUUUUUUGAGAAGCAUGCCCUCCCUAUCCAUUUGUCUUAUAACAUGACCCAG | 34 ratio
UAAAUCCUGUGCCAGCAAUUUAUCCCAAAAGUUUUAAAUUCUGGACCAAUAGUGUUUGUUUCCUGAUUAUUGUAUCCAAUACUUUGCCUAGUAUGUAACUCACUCUUACUGAUAAUAAAA | 2 ratio
UUUCUACUGCAGCAGACGAUGCUAAGAAUUAAGGAUCCUAAGAAGUCCCUGGAUUUUUAUACGAGGGUUCUUGGACUGACCCUCCUGCAGAAGCUUGACUUCCCUGCUAUGAAGUUCUCG | 0.373 ratio
UAAAUUAGGGCUGCCGUUUUCUGUUUCGCCCUGAGCUGCGGAAAGCCAGAAGAUUUUAUCUAGCUUAUACAAGGCUGCUGGUGUUCCCUCUUUUUUUCCCUCUCUCUGUUUUUGGCUGCA | 0.706 ratio
GUACUGCAGCAGCAGGGAAAACUGCAGGAAGCACUGAUGCAUUAUAAGGAGGCUAUUCGAAUCAGUCCUACCUUUGCUGAUGCCUACUCCAAUAUGGGAAACACUCUAAAGGAGAUGCAG | 0.247 ratio
CCUGCUCAGAUCACCAUGAAAGUAAUCCAAGGCCUAUAUAGUGGGGUCACCACAGUGGAACUGGACACCCUGGCUGCUGAGACAGCCGCAACCUUGACUACUAAGCACCCUGACUAUGCC | 0.186 ratio
AAAGUGAUGACUAUGUUUGUCCAACGACAGGUAUUUUCUGAGAACAAGGAUGAGAUUGCGUUAGUCCUCUAUGGCACAGAUGGCACUGAUAAUGCCCUUGCUGGCAAGGACCAGUAUCAG | 0.127 ratio
AAAGAGUGGAUAGAGUGUGCACACGGGAUCGGUGGGACUCGGGCAGAAAAGGAGUGCAAGAUAGAAUUCGAUGACUUCGAAGAGUGCUUGCUUCGGUACAAAACGAUGAGGCGAAUGCAU | 0.34 ratio
UCUUAACGUCCAUUUAAAACUUAUUUUUAUAGCUAGAUAAAUAUUGUUAGUCUUAGUCAAUAGCUCACAUUUUUUGAGAAGCAUGCCCUCCCUGUCCAUUUGUCUUAUAACAUGACCCAG | 166 ratio
AAAGAACCUCUCUCUGAUGAAGAUGAGGACAGUGAUGAUGAUGUUGAACCCAUUUCUGAAUUUCGAUUUGUGCCCAGUGAUAAGUCAGCAUUGGAGGCGAUGUUCACUGCAAUGUGCGAG | 0.298 ratio

Some of these lines once more (block 2):
Strand | fitted relative affinity
TCAAGTCTTGTTTTACAACTGTGCTAG | 0.409 z-score
TTAGGTTTCCTTATCCTCTAGTGCTAG | 8.46 z-score
GACGGTATCCTATTGCTGACGTGCTAG | 3.84 z-score
GACGGTTTCGGTTTCGAGACGTGCTAG | 9.98 z-score
GACGATTTCGGGTTTAGAGACGTGCTA | 2.39 z-score
TTTTTTTCATATATATATGAGTGCTAG | 2.1 z-score
GACGGTATCGGCTTCGGGACGTGCTAG | 1.27 z-score
TTAGGTTTCGGATATCGGTTAGTGCTA | 6.03 z-score
GACTGTTTCGGTTTCGGGACGTGCTAG | 10.2 z-score
